Experimental data collected from several papers.
Compare with care: the assays were run in different laboratories. ± gives the spread as reported. Where no end group is shown, it is not given here. [ ]: non-standard residue; d: D form.
IFIT1 full length assumed: IFIT1 full length assumed (Homo sapiens, UniProt P09914)
Chain of UniProt P09914 (whole entry, looked up): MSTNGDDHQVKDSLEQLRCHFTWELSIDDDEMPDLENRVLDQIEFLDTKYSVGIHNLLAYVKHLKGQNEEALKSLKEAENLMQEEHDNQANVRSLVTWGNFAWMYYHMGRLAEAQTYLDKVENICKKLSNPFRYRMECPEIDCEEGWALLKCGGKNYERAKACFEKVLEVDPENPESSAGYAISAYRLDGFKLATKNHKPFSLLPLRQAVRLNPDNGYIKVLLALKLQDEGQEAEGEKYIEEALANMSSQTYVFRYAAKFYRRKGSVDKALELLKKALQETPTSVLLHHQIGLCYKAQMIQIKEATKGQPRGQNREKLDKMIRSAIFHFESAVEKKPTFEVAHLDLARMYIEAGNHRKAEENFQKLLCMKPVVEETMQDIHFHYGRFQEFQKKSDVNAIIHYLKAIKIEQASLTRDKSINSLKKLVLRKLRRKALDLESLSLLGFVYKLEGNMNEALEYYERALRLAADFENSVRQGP
Eif4e: Eif4e fragment (Mus musculus)
TFRC residues 1-760: TFRC residues 1-760 (Homo sapiens, UniProt P02786)
Chain of UniProt P02786 (whole entry, looked up): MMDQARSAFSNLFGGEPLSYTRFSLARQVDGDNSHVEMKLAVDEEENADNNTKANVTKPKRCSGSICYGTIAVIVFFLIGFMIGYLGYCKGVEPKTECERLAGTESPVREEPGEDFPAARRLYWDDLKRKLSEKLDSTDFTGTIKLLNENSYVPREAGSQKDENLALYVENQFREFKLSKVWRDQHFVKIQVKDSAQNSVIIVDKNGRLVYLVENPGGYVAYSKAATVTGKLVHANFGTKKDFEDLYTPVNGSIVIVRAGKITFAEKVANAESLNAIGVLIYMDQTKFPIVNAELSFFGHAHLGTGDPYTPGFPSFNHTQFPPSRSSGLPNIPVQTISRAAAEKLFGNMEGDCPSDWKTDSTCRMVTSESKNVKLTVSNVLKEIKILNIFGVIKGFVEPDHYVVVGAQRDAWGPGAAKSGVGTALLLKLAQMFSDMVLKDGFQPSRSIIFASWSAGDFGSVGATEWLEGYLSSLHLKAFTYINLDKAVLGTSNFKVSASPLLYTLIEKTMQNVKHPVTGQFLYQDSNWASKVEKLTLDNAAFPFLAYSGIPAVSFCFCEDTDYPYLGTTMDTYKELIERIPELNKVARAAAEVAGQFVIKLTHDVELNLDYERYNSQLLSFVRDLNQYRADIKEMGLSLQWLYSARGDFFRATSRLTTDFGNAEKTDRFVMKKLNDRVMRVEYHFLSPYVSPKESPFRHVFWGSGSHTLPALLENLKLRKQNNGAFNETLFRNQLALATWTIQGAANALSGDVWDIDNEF
T1: NR1I2/RXRA (Homo sapiens); chain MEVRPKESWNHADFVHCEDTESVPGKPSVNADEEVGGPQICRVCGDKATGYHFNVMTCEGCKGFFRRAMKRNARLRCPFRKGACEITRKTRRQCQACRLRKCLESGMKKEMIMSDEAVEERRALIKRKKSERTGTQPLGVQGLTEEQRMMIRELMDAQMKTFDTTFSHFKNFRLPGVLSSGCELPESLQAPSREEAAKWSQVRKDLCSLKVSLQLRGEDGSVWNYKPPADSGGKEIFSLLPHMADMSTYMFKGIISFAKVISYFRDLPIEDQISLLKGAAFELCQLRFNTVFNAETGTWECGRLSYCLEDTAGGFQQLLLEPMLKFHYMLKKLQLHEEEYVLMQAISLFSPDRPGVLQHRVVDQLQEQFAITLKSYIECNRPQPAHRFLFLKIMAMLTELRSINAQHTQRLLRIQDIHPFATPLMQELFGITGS; chain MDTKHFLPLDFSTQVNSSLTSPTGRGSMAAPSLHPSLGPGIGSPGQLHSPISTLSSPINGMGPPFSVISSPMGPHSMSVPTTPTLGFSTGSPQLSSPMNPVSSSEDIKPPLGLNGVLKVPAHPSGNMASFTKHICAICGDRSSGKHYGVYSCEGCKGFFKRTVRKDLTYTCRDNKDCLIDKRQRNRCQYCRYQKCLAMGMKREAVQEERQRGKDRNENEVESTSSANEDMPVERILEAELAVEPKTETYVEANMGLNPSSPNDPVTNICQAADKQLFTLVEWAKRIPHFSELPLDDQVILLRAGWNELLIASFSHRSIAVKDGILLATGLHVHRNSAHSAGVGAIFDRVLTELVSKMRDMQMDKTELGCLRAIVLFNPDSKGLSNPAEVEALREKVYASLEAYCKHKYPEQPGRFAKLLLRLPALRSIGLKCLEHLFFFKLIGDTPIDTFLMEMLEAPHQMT
Chain of UniProt O60656 (whole entry, looked up): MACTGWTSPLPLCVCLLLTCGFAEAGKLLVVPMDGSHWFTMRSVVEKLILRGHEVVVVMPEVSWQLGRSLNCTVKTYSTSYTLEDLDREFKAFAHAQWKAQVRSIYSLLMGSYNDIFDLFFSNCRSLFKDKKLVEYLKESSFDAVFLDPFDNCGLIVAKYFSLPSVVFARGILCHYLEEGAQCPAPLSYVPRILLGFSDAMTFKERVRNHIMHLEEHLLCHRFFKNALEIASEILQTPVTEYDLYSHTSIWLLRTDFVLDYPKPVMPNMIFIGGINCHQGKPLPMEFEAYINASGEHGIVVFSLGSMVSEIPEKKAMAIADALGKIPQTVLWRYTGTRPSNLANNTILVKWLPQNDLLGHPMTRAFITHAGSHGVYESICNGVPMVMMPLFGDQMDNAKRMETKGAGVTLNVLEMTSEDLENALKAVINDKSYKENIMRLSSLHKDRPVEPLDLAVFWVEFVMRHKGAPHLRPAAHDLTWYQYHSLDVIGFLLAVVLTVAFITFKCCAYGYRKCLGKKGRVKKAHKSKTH
Chain of UniProt Q4VGL6 (whole entry, looked up): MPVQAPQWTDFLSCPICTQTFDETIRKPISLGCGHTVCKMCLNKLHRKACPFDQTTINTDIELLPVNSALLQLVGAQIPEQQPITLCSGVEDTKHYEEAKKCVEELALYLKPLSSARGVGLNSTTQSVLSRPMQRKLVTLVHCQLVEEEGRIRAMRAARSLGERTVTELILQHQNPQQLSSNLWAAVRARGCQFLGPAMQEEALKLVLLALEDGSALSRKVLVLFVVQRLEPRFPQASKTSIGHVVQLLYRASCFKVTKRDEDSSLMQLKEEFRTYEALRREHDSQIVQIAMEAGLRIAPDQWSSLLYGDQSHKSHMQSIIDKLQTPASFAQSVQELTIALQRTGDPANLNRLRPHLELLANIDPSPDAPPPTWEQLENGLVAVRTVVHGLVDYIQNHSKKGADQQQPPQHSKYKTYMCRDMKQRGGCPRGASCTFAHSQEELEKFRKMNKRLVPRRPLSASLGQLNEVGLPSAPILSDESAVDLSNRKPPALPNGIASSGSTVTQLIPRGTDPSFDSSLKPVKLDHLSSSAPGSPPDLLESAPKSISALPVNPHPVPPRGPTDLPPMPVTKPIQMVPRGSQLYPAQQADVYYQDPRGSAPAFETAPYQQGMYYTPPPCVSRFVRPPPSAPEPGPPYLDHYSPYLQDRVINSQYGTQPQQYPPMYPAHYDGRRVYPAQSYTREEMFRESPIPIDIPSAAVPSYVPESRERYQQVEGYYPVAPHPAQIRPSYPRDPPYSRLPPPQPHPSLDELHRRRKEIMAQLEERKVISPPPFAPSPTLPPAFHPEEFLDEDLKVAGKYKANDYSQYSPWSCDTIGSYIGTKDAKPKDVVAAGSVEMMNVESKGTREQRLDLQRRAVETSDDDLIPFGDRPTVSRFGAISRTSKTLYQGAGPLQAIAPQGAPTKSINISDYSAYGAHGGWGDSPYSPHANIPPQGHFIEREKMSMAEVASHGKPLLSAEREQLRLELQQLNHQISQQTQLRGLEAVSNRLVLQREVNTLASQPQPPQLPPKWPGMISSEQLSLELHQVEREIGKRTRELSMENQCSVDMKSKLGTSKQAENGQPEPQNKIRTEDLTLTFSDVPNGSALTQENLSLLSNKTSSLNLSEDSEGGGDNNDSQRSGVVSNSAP
Chain of UniProt Q9NR56 (whole entry, looked up): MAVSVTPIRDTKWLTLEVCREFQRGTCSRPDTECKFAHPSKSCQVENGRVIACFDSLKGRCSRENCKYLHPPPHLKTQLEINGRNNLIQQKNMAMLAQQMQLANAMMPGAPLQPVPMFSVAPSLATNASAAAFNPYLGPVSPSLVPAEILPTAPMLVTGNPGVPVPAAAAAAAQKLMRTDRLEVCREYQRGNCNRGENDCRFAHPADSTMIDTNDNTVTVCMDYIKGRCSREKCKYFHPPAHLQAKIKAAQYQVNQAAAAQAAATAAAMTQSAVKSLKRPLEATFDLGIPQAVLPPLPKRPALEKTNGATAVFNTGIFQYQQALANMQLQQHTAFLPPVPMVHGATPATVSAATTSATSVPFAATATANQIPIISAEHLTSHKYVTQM
Chain of UniProt Q01130 (whole entry, looked up): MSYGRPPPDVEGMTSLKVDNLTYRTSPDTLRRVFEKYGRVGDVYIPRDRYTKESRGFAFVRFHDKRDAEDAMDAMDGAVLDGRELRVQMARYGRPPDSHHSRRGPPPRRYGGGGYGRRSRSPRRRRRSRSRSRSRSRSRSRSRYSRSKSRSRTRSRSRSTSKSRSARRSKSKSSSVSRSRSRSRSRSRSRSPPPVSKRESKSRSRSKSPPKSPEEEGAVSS
Chain of UniProt O15527 (whole entry, looked up): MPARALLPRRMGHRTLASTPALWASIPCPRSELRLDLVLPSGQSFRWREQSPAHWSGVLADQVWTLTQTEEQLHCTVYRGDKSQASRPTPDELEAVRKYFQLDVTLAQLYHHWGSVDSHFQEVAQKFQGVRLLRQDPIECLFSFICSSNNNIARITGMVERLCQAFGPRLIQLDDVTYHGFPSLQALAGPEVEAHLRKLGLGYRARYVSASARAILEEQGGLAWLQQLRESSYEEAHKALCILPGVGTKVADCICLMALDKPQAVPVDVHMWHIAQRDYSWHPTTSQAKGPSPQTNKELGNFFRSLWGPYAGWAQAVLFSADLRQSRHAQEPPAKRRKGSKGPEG

For `CACGACGCAAGGGACCACAGGTGGACCGCTAACTCCGGCCCAGGTCCAGCACGACACCGCAGAGGCA (ssDNA; indole-modified 5-ethynyl-dU at 22, 30, 34, 45)`, the Kd was 22 nM (CSPG4 30-2322 (Homo sapiens, UniProt Q6UVK1); flow cytometry; A375; apparent, intact cells, not purified, added: Mg2+ 5 mM).
The Kd of `CCGGTCGTACGGAAAACCTGTATTTTCAGGGCTCCGG (dsDNA)` is reported as 490 nM (POLG2 fragment (Homo sapiens); EMSA; double-stranded DNA, one strand shown).
For `GGGAGACCGGCCUCGA (ssRNA; 5' m7GpppG cap, linear)`, the Kd was 17.6 nM (IFIT1 full length assumed; BLI).
`TAGTGAACTTTCGGTGAACCCTGATCAGCGTTCGATGCTTCCGACTAATCAGCCATATCAGCTTACGACTA (dsDNA)` has a Kd of 5 ± 1 nM (RXRA/RARA ; (Mus musculus); switchSENSE; double-stranded DNA, one strand shown; added: 9-cis RA).
`CCUCUGCUUGCUGUUUAUGUUAAUGCGCUUGAACCCCACUGGCCC (ssRNA)` gave a Kd of 11 nM (MBNL1 1-260 (Homo sapiens, UniProt Q9NR56); EMSA).
`GGCCUAGCCGUGGGUUCUACCACGUCUCAAGGCU (structured RNA)` has a Kd of 770 ± 158 nM (Rc3h1 89-404 (Mus musculus, UniProt Q4VGL6); EMSA; added: MgCl2 1 mM).
The Kd of `GAG (ssRNA; m7G 5'-5' triphosphate cap, A2)` is reported as 26.6 ± 0.9 nM (Eif4e; fluorescence quenching titration).
`[Aib][Aib]IA (Aib = CC(C)(N)C(=O)O)` has a cell viability of 91.9% (PC-12; protection from Aβ1–42 toxicity, MTT; concentration not given, 6 h, Aβ to peptide ratio 1:10, added: Aβ1–42 2 µM; relative to: untreated cells).
`CGATCATGGAGGCTAGCGCTCCCGTTACAG (dsDNA; blunt, 2'-fluoro-8-oxoG position 16)` has a Kd of 2 ± 1 nM (OGG1 full length assumed (Homo sapiens, UniProt O15527); EMSA; double-stranded DNA, one strand shown; 25 °C, non-cleavable).
`cholecystokinin octapeptide` gave a remaining activity of 142 ± 4% (PKCθ rat; kinase activity; 10 nM, immunoprecipitated enzyme, added: histone H1 substrate; relative to: untreated).
The Kd of `TACTCATAGGGTTAGGGGCTGCTGGCCAGATACTCAGATGGTAGGGTTACTATGAGCA (ssDNA; 5' C6 spacer)` is reported as < 15 nM (TFRC residues 1-760; flow cytometry; PL45; not purified).
`GUAUGCAUAGGC (ssRNA (Saccharomyces cerevisiae); hairpin when bound)` has a Kd of 12 ± 1 nM (Fab BRG Fab; filter binding).
The Kd of `TCTGGAACGGAATTCTTCTA (dsDNA (Mus musculus); blunt; 5hmC and 5mC at CpG)` is reported as 7.8 ± 4.7 nM (MECP2 1-486 (Homo sapiens, UniProt P51608); fluorescence anisotropy; double-stranded DNA, one strand shown; KCl 150 mM).
`GAGASAEEKH`: “competition of transducin alpha binding” “no effect” (transducin alpha binding to UNC119, GST pulldown; peptide, bovine retina lysate; concentration not given).
`[dA]VIA (D-Ala1)` has a cell viability of 70% (PC-12; protection from Aβ1–42 toxicity, MTT; concentration not given, 6 h, Aβ to peptide ratio 1:1, added: Aβ1–42 2 µM; relative to: untreated cells).
For `TGAACTTGCTGACCC (dsDNA)`, the Kd was 206 ± 53 nM (T1, NR1I2/RXRA (Homo sapiens); fluorescence anisotropy; double-stranded DNA, one strand shown; added: SR12813, 9-cis-retinoic acid).
The Ki of `UUUCAGCUCCGGUCACGCUC (ssRNA)` is reported as 322 nM (SRSF2 full length assumed (Homo sapiens, UniProt Q01130); NanoBRET competition; HEK293; apparent, permeabilized cells, not purified).
With `GGGGAACACGUUUACUAACAUAACUUUAUUUACAUAGCAUGUCA / GUAUGCAUAGGCAAUAA (structured RNA (Saccharomyces cerevisiae); 2'-5' branch, two strands)` the Kd was 21 ± 3 nM (Fab BRG Fab; filter binding).
`GAGUUGAGUUGAGUUGAGUUGAGUUGAGUUGAGUUGAGUUGAGUUGAGUUGAGUU (ssRNA; single strand)` has a Kd of 115 ± 16 nM (mtrB full length assumed T30V (Bacillus subtilis, UniProt P19466); filter binding; added: no tryptophan).
The Vmax/Km of `UGT1A9 (Homo sapiens, UniProt O60656)` is reported as 63 µL/min/mg (Oc1ccc(/C=C/c2cc(O)cc(O)c2)cc1; steady-state kinetics; pH 7.4, 37 °C).
With `GGGAGACCGGCCUCGA (ssRNA; 5' triphosphate, linear)` the Kd was 55.8 nM (IFIT1 full length assumed; BLI).
With `CACGACGCAAGGGACCACAGGTTTTGCGAACGCGGGTAGGCGCACCCTTCGCACAAACGTCCCCAGCACGACACCGCAGAGGCA (XNA; 5-ethynyl-dU in flow assay)` the Kd was 53.3 ± 5.89 nM (Streptavidin fragment (Streptomyces avidinii); SPR; 37 °C).
The Kd of `TTAGGGTTAGGGTTAGGG (ssDNA)` is reported as 21.6 ± 1 nM (CTC1/STN1/TEN1 (Homo sapiens); double-filter binding; single-stranded DNA).
For `Insulin human`, the concentration was 18.4 ± 8 pg/mg tissue (ELISA; rat, ventral cortex; intranasal, 20 µg per nostril, 60 min).
For `GCG (ssRNA; m7G 5'-5' triphosphate cap, C2)`, the Kd was 25.1 ± 0.6 nM (Eif4e; fluorescence quenching titration).
`AUGCACAGGC (ssRNA)` gave a Kd of 21 ± 4 nM (Fab BRG Fab; filter binding).
For `GAG (ssRNA; m7G 5'-5' triphosphate cap, N6,2'-O-dimethyl A2)`, the Kd was 32.8 ± 0.8 nM (Eif4e; fluorescence quenching titration).
With `TTACTCATAGGGTTAGGGGCTGCTGGCCAGATACTCAGATGGTAGGGTTACTATGAGCAA (ssDNA; 5' C6 spacer)` the Kd was < 15 nM (TFRC residues 1-760; flow cytometry; PL45; not purified).

A few entries again:
For `Insulin human`, the concentration was 18.4 ± 8 pg/mg tissue (ELISA; rat, ventral cortex; intranasal, 20 µg per nostril, 60 min).
`GGCCUAGCCGUGGGUUCUACCACGUCUCAAGGCU (structured RNA)` has a Kd of 770 ± 158 nM (Rc3h1 89-404 (Mus musculus, UniProt Q4VGL6); EMSA; added: MgCl2 1 mM).
